Measured values pooled from the literature.
Several values in a cell are separate wells, animals, samples, runs or records. ± gives the spread as reported.
Chain of UniProt P04062 (whole entry, unmodified, looked up): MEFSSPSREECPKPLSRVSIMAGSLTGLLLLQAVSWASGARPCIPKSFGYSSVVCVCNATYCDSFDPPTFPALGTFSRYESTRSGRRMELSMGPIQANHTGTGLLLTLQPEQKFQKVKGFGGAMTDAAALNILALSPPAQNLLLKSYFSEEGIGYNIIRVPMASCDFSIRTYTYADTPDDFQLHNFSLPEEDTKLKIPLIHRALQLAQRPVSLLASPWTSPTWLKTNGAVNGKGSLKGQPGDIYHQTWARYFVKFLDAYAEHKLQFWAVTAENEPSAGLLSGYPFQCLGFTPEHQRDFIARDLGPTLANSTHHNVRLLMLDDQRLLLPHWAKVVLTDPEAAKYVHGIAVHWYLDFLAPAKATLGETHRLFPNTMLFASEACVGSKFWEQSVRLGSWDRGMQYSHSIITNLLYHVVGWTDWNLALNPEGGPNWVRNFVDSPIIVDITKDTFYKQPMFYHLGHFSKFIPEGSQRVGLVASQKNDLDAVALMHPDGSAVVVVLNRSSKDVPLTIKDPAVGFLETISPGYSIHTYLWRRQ

| SMILES | target or system | assay | test system | conditions | how to read | measurement | result |
| --- | --- | --- | --- | --- | --- | --- | --- |
| C=C(NC(=O)c1csc(-c2nc3c(cc2O)-c2nc(cs2)C(=O)NC(C(C)O)C(=O)NC(=C(C)OC)c2nc(cs2)C(=O)NC2c4nc(cs4)C(=O)NC(COC(=O)c4c5c6c(cccc6n4O)COC(=O)C(OC4CC(C)(O)C(N(C)C)C(C)O4)C2OC5)c2nc-3cs2)n1)C(N)=O (stereo not shown) |  |  | Sprague-Dawley rat, both sexes, plasma | intravenous infusion, 18 mg/kg single dose |  | MRT(0-last) | 2.1 h |
| CC(C)C[C@H](NC(=O)[C@H](CCCCN)NC(=O)[C@H](CC(C)C)NC(=O)[C@H](CCCCN)NC(=O)C1CCCC=CCCC(NC(=O)[C@H](CCCCN)NC(=O)[C@H](CC(C)C)NC(=O)[C@H](CCCCN)NC(=O)[C@@H](N)CC(C)C)C(=O)N[C@@H](CCCCN)C(=O)N2CCC[C@@H]2C(=O)NCC(=O)N[C@@H](CCCCN)C(=O)N1)C(N)=O (stereo partly shown) |  | RP-HPLC C18 |  | hydrophobicity |  | retention time | 14.3 min |
| Cc1cc(-c2ccc(C(=O)[C@@H]3CCCC[C@H]3C(=O)Nc3cnn4c3C(=O)NCC4)cc2)[nH]n1 |  |  | human, urine | oral, 200 mg, 0-24 h | reference: dose | cumulative radioactivity recovery | 4.59% and 5.77% and 6.15% and 5.16% and 5.93% |
| C/C(N)=N/C(=N\S(=O)(=O)c1ccc(C(F)(F)F)cc1)N1C[C@H](c2ccccc2)C(c2ccc(Cl)cc2)=N1 |  |  | male C57BL/6 mouse, muscle | intravenous, 10 mg/kg |  | AUC(0-inf) | 21000 ng·h/mL |
| OC[C@@H]1[C@@H](O)[C@H](O)[C@@H](O)CN1CCCCCOCc1cccc(-c2ccccc2)c1 | Lysosomal acid glucosylceramidase (GBA1, Homo sapiens, UniProt P04062, R534H) | inhibitor, 4MU-β-D-glucopyranoside |  | added: 4MU-β-D-glucopyranoside |  | IC50 | 300 nM |
| CN1CCCNC(=O)c2cccc(c2)C(=O)NCCCN(C)CCCNc2cccc3c2C(=O)c2cccc(c2C3=O)NCCC1 |  |  | mouse xenograft model | dose not given, day 0, group mean |  | body weight | 25.6 g |
| C=CC(=O)N1CCCC(n2c(=O)c3ncccc3n(Cc3ccc(Oc4ccccc4)cc3)c2=O)C1 (stereo not shown) |  | metabolic stability | male beagle dog, hepatocytes | 1 µM, 90 min |  | compound remaining | 26.8% |
| Cc1ccc(C(=O)c2c(NC(=O)c3ccncc3)sc3c2CCCC3)cc1 | Trypanosoma cruzi | reporter mRNA translation, inhibitor, refers to: capped polyadenylated Renilla luciferase mRNA | cell-free extract | concentration not given | reference: control RNA | relative translation | 106% |
| CCCCN1C(=O)c2cccc3c(NCCCN4CCOCC4)ccc(c23)C1=O |  |  | water | pH 6.0 |  | fluorescence quantum yield | 0.47 |
| Oc1cccc(-c2cccc(O)n2)n1.[Cl-].[Cl-].[Ru+2].c1ccc(-c2ccnc3c2ccc2c(-c4ccccc4)ccnc23)cc1.c1ccc(-c2ccnc3c2ccc2c(-c4ccccc4)ccnc23)cc1 |  |  | acetonitrile | acidic form |  | singlet oxygen quantum yield | 0.05 |
| COc1cccc(CNC(=O)CCC2CCCN(C/C=C/c3ccccc3OC)C2)c1 (stereo not shown) | Trypanosoma cruzi | reporter mRNA translation, inhibitor, refers to: capped polyadenylated Renilla luciferase mRNA | cell-free extract | concentration not given | reference: control RNA | relative translation | 95.8% |
| COCC1CN(C2CCN(c3cc(OC)c(Nc4ncc(Br)c(Nc5ccc6c(c5P(C)(C)=O)OCCO6)n4)cc3C)CC2)C1 |  | first-in-human trial | human | oral, 240 mg once daily | treatment-related leading to dose reduction | adverse events | 0% |
| COc1ccc(C(N)=O)cn1 |  |  | Han Wistar rats, male, plasma | oral, 30 mg/kg, 0.50 h |  | concentration at time | 139 µM |
| Cc1c(Cc2ccc(Cl)c(O[C@@H](C)C(=O)O)c2)c2ccc(C(=O)N[C@@H](C)c3cc(F)cc(C(C)(C)C)c3)cc2n1C |  |  | human liver microsomes | 1 µM, added: microsomes 1 mg/mL |  | half-life | > 1 h |
| C=CC(=O)Nc1cc(Nc2nccc(-c3c[nH]c4ccccc34)n2)c(OC)cc1N(C)CCN(C)C |  | storage stability | human dried blood spots | 24 h, -80 °C, low QC level |  | recovery | 101% |
| COC1C=COC2(C)Oc3c(C)c(O)c4c(c3C2=O)C2=NC3(CCN(CC(C)C)CC3)NC2=C(NC(=O)C(C)=CC=CC(C)C(O)C(C)C(O)C(C)C(OC(=O)Nc2cccnn2)C1C)C4=O (stereo not shown) |  |  | female CD-1 mouse, plasma | oral, 10 mg/kg |  | AUC | 32700 ng·h/mL |
| CC(C)(O)c1ncc([S@](N)(=O)=NC(=O)Nc2c3c(cc4c2CCC4)CCC3)s1 |  | refers to: general and administration-site disorders | healthy human volunteers | oral, 600 mg single dose, spray-dried dispersion |  | subjects with adverse events | 17% |
| [11CH3]N1CCC(NC(=O)c2cc(-c3c(O)cc(O)cc3Oc3ccc([N+](=O)[O-])cc3)on2)CC1 |  |  | Wistar rat, female, healthy, lungs | intravenous, 18.5 MBq, 10 min |  | SUV | 1.4 ± 0.1 |
| O=C(Nc1cnccc1-c1ccc([18F])nc1)c1ccnc(NC(=O)C2CC2)c1 |  | ex vivo gamma counting | FVB/NJ mice, both sexes, salivary gland | intravenous, 120 min, added: tariquidar 15 mg/kg iv |  | mean SUV | 0.186 |

Excerpt of the above:
| SMILES | target or system | assay | test system | conditions | how to read | measurement | result |
| --- | --- | --- | --- | --- | --- | --- | --- |
| C=CC(=O)N1CCCC(n2c(=O)c3ncccc3n(Cc3ccc(Oc4ccccc4)cc3)c2=O)C1 (stereo not shown) |  | metabolic stability | male beagle dog, hepatocytes | 1 µM, 90 min |  | compound remaining | 26.8% |
| [11CH3]N1CCC(NC(=O)c2cc(-c3c(O)cc(O)cc3Oc3ccc([N+](=O)[O-])cc3)on2)CC1 |  |  | Wistar rat, female, healthy, lungs | intravenous, 18.5 MBq, 10 min |  | SUV | 1.4 ± 0.1 |
